# Assay results collected from several papers.
# Each line is one published result; not all experiments were run side by side. Values joined by “and” are separate records of one study, mostly repeats; a detail may differ.
# Target: Prostaglandin G/H synthase 1 (PTGS1, Homo sapiens, UniProt P23219)
Compound,assay,conditions,scale,quantity,value
Cc1ccc2c(n1)c(-c1cccc(S(C)(=O)=O)c1)c(C)n2C/C(F)=C/CN,cell-free assay,10 µM,,inhibition,-11%
CCN(CC)CCOc1ccc(-c2nnn(Cc3ccc(OC)cc3)c2N)cc1,enzyme activity,10 µM,,inhibition,-9%
C/C(=N\OCCCN1CCCCC1)c1ccc(C(F)(F)F)cc1,"antagonist, FI",10 µM,,inhibition,1.92%
CCc1nnc(-c2c(OC)cc(-c3cnc4cc(-c5cnn(C)c5)ccn34)cc2OC)o1,radioligand binding,"10 µM, SafetyScreen44 mean",lower = stronger displacement,remaining binding,148%
Cc1cc(-c2ccc3ccccc3c2)nnc1NCCN1CCN(C)CC1,enzyme activity,10000 nM,,inhibition,0%
C[C@H](NCc1ccc(-c2ccc(C(F)(F)F)cc2)cc1)C(N)=O,"enzyme activity, SafetyScreen panel","1 µM, together with: 100 µM arachidonic acid",,inhibition,15%
CS(C)(=O)=Nc1ccc(-c2ccc(-c3nc4cc(O[C@@H]5CO[C@H]6[C@@H]5OC[C@H]6O)[nH]c4cc3F)cc2)cc1,"enzyme activity, inhibitor",10 µM,,inhibition,12%
COc1ccc(F)cc1S(=O)(=O)Nc1cnc2c(c1)C(=O)NCCO2,"enzyme activity, inhibitor",10 µM,,inhibition,13%
Cc1cc(Nc2nc(C[C@@]3(C(=O)O)CCN(Cc4cccc(Cl)c4F)[C@H](C)C3)cc(C)c2F)[nH]n1,"enzyme activity, inhibitor",10 µM,,inhibition,-8.38%
O=C(O)c1ccc(-c2nc(-c3ccccc3Cl)c3sccn23)cc1,"radioligand binding, safety screen panel",10 µM,baseline: control,specific binding,121% and 124%

# Excerpt of the above:
Compound,assay,conditions,scale,quantity,value
Cc1cc(-c2ccc3ccccc3c2)nnc1NCCN1CCN(C)CC1,enzyme activity,10000 nM,,inhibition,0%
Cc1cc(Nc2nc(C[C@@]3(C(=O)O)CCN(Cc4cccc(Cl)c4F)[C@H](C)C3)cc(C)c2F)[nH]n1,"enzyme activity, inhibitor",10 µM,,inhibition,-8.38%
